# Results gathered from unrelated publications.
# Lines come from different studies, so protocols differ. ± gives the spread as reported.
Compound,target or system,assay,system,conditions,scale,measurement,result
O=C(O)COc1ccc(Br)cc1C=NNC(=O)Cc1ccccc1 (mixture of isomers),,measured: latency to stage 3,"male mice, pilocarpine-induced seizures","oral, 20 mg/kg, dosed 30 min before pilocarpine, together with: pilocarpine 300 mg/kg i.p.",reference: pilocarpine vehicle group,seizure latency increase,189%
CC[C@H](C)[C@@H]1NC(=O)[C@H](C(C)C)NC(=O)[C@H](Cc2ccccc2)NC(=O)[C@H](Cc2ccccc2)NC(=O)[C@@H]2CCCN2C(=O)[C@@H]2CCCN2C(=O)[C@H]([C@@H](C)CC)NC(=O)[C@H](CC(C)C)NC(=O)[C@H](CCSC)NC1=O,SK-BR-3,LDH release,,"400 µg/mL, 24 h",,cytotoxicity,41%
CCCCCC(=O)OCn1cc(F)c(=O)[nH]c1=O,,,"Sprague-Dawley rat, plasma","80 µg/mL, 37 °C",,half-life,30 ± 0.6 min
CCCCn1ccn2c(-c3ccc(Oc4ccnc(C)c4)c(F)c3)c(C)nc2c1=O,,,rat liver microsomes,"5 µM, 15 min",,metabolized fraction,37%
Cc1nc(Cl)cnc1C#N,"Cellular tumor antigen p53, DNA-binding domain (TP53, Homo sapiens, UniProt P04637, M133L/N239Y/N268D/V203A/Y220C)",differential scanning fluorimetry,,"250 µM, 24 h",,ΔTm,1.1 °C
COc1ccc(CNc2ccc(-c3ccn4c(CC5CC5)nnc4c3C(F)(F)F)cc2F)cn1,,,"male Sprague-Dawley rat, plasma","subcutaneous, 10 mg/kg, 4 h, single dose",,concentration,643 ng/mL
CC(C)C[C@H](NC(=O)OCc1ccccc1)C(=O)N[C@@H](C[C@@H]1CCNC1=O)C(=O)C(=O)NC1CCCCC1,CRFK,cell growth or viability,,36 h,,CC50,> 150 µM
Cc1ccc(Oc2ccc(-c3ccn4c(CC5CC5)nnc4c3C(F)(F)F)cc2F)c(C)n1,,,human liver microsomes,"5 µM, 15 min",,compound metabolized,31%
O=C[C@H](C[C@@H]1CCNC1=O)NC(=O)[C@H](CC1CCCCC1)NC(=O)OCc1ccccc1,CRFK,cell growth or viability,,36 h,,CC50,> 150 µM
O=C(O)COc1ccc(Br)cc1/C=N/NC(=O)c1ccc(Cl)cc1,,Racine scale 0-5,"male mice, pilocarpine-induced seizures","oral, 20 mg/kg, 1.5 h after pilocarpine, unit not given, together with: pilocarpine 300 mg/kg i.p.",higher = more severe,seizure severity,1.9 ± 0.32
CC[C@H](C)[C@@H]1NC(=O)[C@H](CC(C)C)NC(=O)[C@H](Cc2ccccc2)NC(=O)[C@H](Cc2ccccc2)NC(=O)[C@@H]2CCCN2C(=O)[C@@H]2CCCN2C(=O)[C@H](C(C)C)NC(=O)[C@H](CC(C)C)NC(=O)[C@H]([C@@H](C)CC)NC1=O,MCF7,LDH release,,"200 µg/mL, 48 h",,cytotoxicity,7%
CC(C)C[C@H](NC(=O)OCc1ccccc1)C(=O)N[C@@H](C[C@@H]1CCNC1=O)C(O)S(=O)(=O)O (stereo partly drawn),CRFK,cell growth or viability,,36 h,,CC50,> 150 µM

# Excerpt of the above:
Compound,target or system,assay,system,conditions,scale,measurement,result
CC(C)C[C@H](NC(=O)OCc1ccccc1)C(=O)N[C@@H](C[C@@H]1CCNC1=O)C(=O)C(=O)NC1CCCCC1,CRFK,cell growth or viability,,36 h,,CC50,> 150 µM
